Published values collected from several papers.
Each line is one published result; not all experiments were run side by side. Several values in a cell are separate wells, animals, samples, runs or records. ± gives the spread as reported.

Structure (SMILES) | cell line | test | test system | setting | how to read | measurement | result
CC[C@H](C)[C@H](NC(=O)CNC(=O)[C@H](Cc1ccc(O)cc1)NC(=O)[C@H](CO)NC(=O)[C@H](Cc1ccc(O)cc1)NC(=O)[C@@H](NC(=O)[C@H](CC(=O)O)NC(=O)[C@H](CO)NC(=O)[C@H](CCC(N)=O)NC(=O)[C@H](Cc1ccccc1)NC(=O)[C@H](CO)NC(=O)[C@H](Cc1ccccc1)NC(=O)[C@@H]1CCCN1C(=O)[C@H](CC(N)=O)NC(=O)[C@H](CC(N)=O)NC(=O)[C@H](CC(=O)O)NC(=O)[C@H](CCC(N)=O)NC(=O)[C@@H]1CCCN1C(=O)[C@H](CCCNC(=N)N)NC(=O)[C@H](CCCNC(=N)N)NC(=O)[C@H](CCCNC(=N)N)NC(=O)[C@H](CCC(N)=O)NC(=O)[C@H](CCCNC(=N)N)NC(=O)[C@H](CCCNC(=N)N)NC(=O)[C@H](CCCCN)NC(=O)[C@H](CCCCN)NC(=O)[C@H](CCCNC(=N)N)NC(=O)CN)C(C)C)C(=O)N[C@H](C(=O)N[C@@H](CC(C)C)C(N)=O)C(C)C | MCF7 | immunoblot densitometry, item: phospho-MEK1/2 Ser217/221 | – | 50 µM, 48 h, unit not given | baseline: 0 µM | phospho-MEK1/2 level | 0.388 and 0.275
C#CCN1C(=O)C(CC#C)(C(=O)OCC)Oc2ccccc21 (stereo not drawn) | HaCaT | cell growth or viability, CCK-8 | – | 1.56 µM, 72 h | – | inhibition | 0.27%
CC(=O)NCSC[C@H](NC(=O)[C@@H]1CCCN1C(=O)[C@H](C)NC(=O)[C@@H](NC(=O)CNC(=O)[C@@H](NC(=O)[C@H](Cc1c[nH]c2ccccc12)NC(=O)[C@H](C)NC(=O)CNC(=O)[C@H](CO)NC(=O)[C@H](C)NC(=O)[C@@H]1CCCN1C(=O)[C@H](Cc1c[nH]c2ccccc12)NC(=O)[C@H](C)NC(=O)[C@H](C)NC(=O)[C@@H](N)Cc1ccc(O)cc1)[C@@H](C)O)[C@@H](C)O)C(=O)N[C@@H](CO)C(=O)N[C@@H](C)C(=O)NCC(=O)N[C@H](C(=O)NCCOCCOCCOCCOCCOCCOCCOCCOCCOCCOCCOCCOCCC(=O)N[C@@H](CS)C(N)=O)[C@@H](C)O | H460 lung large cell carcinoma | cell binding, phage binding, item: output/input phage | – | 10 min, 37 °C | baseline: control phage | selectivity ratio | 1.1 ± 0.33
CC(C)=CCc1c(O)cc2c(c1O)C(=O)CC(c1ccc(O)cc1)O2 (stereo not drawn) | HeLa | cell growth or viability, MTT | – | 6.25 µM, 48 h | – | inhibition | 10.4%
CNC(=S)N/N=C/c1ccc(OCc2ccccc2)cc1 | IMR-32 | – | – | 300 µg/mL, 24 h | higher = more activity | catalase activity (OD450) | 0.059 a.u.
O=C1C(Cl)=C(Cl)C(=O)c2ccccc21 | HuCC-A1 | MTT | – | – | baseline: IC50 MRC-5 over IC50 HuCC-A1 | selectivity index | 3.31
C=CCN1C(=O)C(CC=C)(C(=O)OCC)Oc2cc(F)ccc21 (stereo not drawn) | L02 | cell growth or viability, CCK-8 | – | 6.25 µM, 72 h | – | inhibition | 0.12%
NC(=S)N/N=C/c1ccc(OCc2cccc(F)c2)cc1 | IMR-32 | – | – | 100 µg/mL, 24 h | higher = more activity | catalase activity (OD450) | 0.129 a.u.
COc1ccccc1-c1ccncc1C(=O)Nc1nnc(OCc2ccc(Cl)cc2)s1 | DLD-1 parental | – | – | 0.125 µM | baseline: untreated | colony survival | 95% and 97% and 92.2%
CC(C)[C@H](NC(=O)[C@H](CCCNC(=N)N)NC(=O)[C@@H]1CCCN1C(=O)[C@@H](NC(=O)[C@H](C)NC(=O)[C@H](Cc1ccc(O)cc1)NC(=O)[C@H](CCC(N)=O)NC(=O)[C@H](CCCCN)NC(=O)[C@H](CCCNC(=N)N)NC(=O)[C@@H]1CCCN1C(=O)[C@H](CCC(=O)O)NC(=O)[C@@H](NC(=O)[C@H](C)N)[C@@H](C)O)[C@@H](C)O)C(=O)N[C@@H](Cc1ccccc1)C(=O)N[C@@H](Cc1c[nH]c2ccccc12)C(=O)N[C@H](C(=O)N[C@@H](CC(=O)O)C(=O)N[C@@H](C)C(=O)N1CCC[C@H]1C(=O)NCC(=O)NCCOCCOCCOCCOCCOCCOCCOCCOCCOCCOCCOCCOCCC(=O)N[C@@H](CS)C(N)=O)[C@@H](C)O | H460 lung large cell carcinoma | cell binding, phage binding, item: output/input phage | – | 10 min, 37 °C | baseline: control phage | selectivity ratio | 0.83 ± 0.21
CC[C@H](C)[C@H](NC(=O)CNC(=O)[C@H](CC(=O)O)NC(=O)[C@H](CO)NC(=O)[C@@H](N)Cc1c[nH]cn1)C(=O)N[C@@H](Cc1ccccc1)C(=O)N[C@H](C(=O)N[C@@H](CC(=O)O)C(=O)N[C@@H](CO)C(=O)N[C@@H](Cc1ccc(O)cc1)C(=O)N[C@@H](CO)C(=O)N[C@@H](CCCNC(=N)N)C(=O)N[C@@H](Cc1ccc(O)cc1)C(=O)N[C@@H](CCCNC(=N)N)C(=O)N[C@@H](CCCCN)C(=O)N[C@@H](CCC(N)=O)C(=O)N[C@@H](CCSC)C(=O)N[C@@H](C)C(=O)N[C@H](C(=O)N[C@@H](CCCCN)C(=O)N[C@@H](CCCCN)C(=O)N[C@@H](Cc1ccc(O)cc1)C(=O)N[C@@H](CC(C)C)C(=O)N[C@@H](C)C(=O)N[C@@H](C)C(=O)N[C@H](C(=O)N[C@@H](CC(C)C)C(=O)NCC(=O)N[C@@H](CCCCN)C(=O)N[C@@H](CCCNC(=N)N)C(=O)N[C@@H](Cc1ccc(O)cc1)C(=O)N[C@@H](CCCCN)C(=O)N[C@@H](CCC(N)=O)C(=O)N[C@@H](CCCNC(=N)N)C(=O)N[C@H](C(=O)N[C@@H](CCCCN)C(=O)N[C@@H](CC(N)=O)C(=O)N[C@@H](CCCCN)C(N)=O)C(C)C)C(C)C)C(C)C)[C@@H](C)O | BON | cell growth, MTT | – | 20 h | – | EC50 | 0.01 µM
CC(C)C[C@H](NC(=O)[C@H](CC(=O)O)NC(=O)CNC(=O)[C@@H](N)CCCNC(=N)N)C(=O)N[C@@H](C)C(=O)N[C@H](C(=O)N[C@@H](CC(C)C)C(=O)N[C@@H](CCCNC(=N)N)C(=O)N[C@@H](CCC(N)=O)C(=O)N[C@@H](CC(C)C)C(=O)N[C@@H](C)C(=O)N[C@@H](CCC(N)=O)C(=O)N[C@@H](CCC(=O)O)C(=O)N[C@@H](CC(=O)O)C(=O)NCC(=O)N[C@H](C(=O)N[C@H](C(=O)NCC(=O)N[C@H](C(=O)N[C@@H](CCCNC(=N)N)C(=O)NCCOCCOCCOCCOCCOCCOCCOCCOCCOCCOCCOCCOCCC(=O)N[C@@H](CS)C(N)=O)C(C)C)C(C)C)C(C)C)[C@@H](C)O | HCC1171 lung carcinoma | cell binding, phage binding, item: output/input phage | – | 10 min, 37 °C | baseline: control phage | selectivity ratio | 2.9 ± 1.5
N#Cc1cccc(-c2ccc(=O)n(Cc3cccc(-c4ncc(OCC5CCN(CC(=O)N6CCN(c7ccc8c(c7)C(=O)N(C7CCC(=O)NC7=O)C8=O)CC6)CC5)cn4)c3)n2)c1 (stereo not drawn) | EBC-1 | label-free proteomics, item: SCEL | – | concentration not given | baseline: control | protein level fold change | -4.63
COc1ccc(NC(=O)c2ccc3[nH]c(-c4ccc(N(C)C)cc4)nc3c2)cn1 | HCT116 | IncuCyte | – | concentration not given, 8 (unit not given) | – | PI-positive cells | 13.3 count and 8.42 count and 6.75 count
CC1OC2OC3C4=C(OC3(C)C12O)C(=O)c1c(O)cccc1C4=O (stereo not drawn) | SiHa | sulforhodamine B | – | 10 µg/mL, 48 h | negative means cell kill | growth percent | -31.2%
O=C(O)c1ccc(-c2nc(-c3ccccc3Cl)c3sccn23)cc1 | K562 | erythroid differentiation, flow cytometry | – | 0.01 mM, 24 h, unit not given | baseline: untreated | CD71 fluorescence intensity | 1
CC[C@H](C)[C@H](NC(=O)[C@H](C)NC(=O)CNC(=O)[C@H](Cc1ccccc1)NC(=O)[C@H](CC(N)=O)NC(=O)[C@H](CC(N)=O)NC(=O)[C@H](CO)NC(=O)[C@H](CO)NC(=O)[C@H](Cc1c[nH]cn1)NC(=O)[C@@H](NC(=O)[C@H](CC(C)C)NC(=O)[C@H](Cc1ccccc1)NC(=O)[C@H](CC(N)=O)NC(=O)[C@H](C)NC(=O)[C@H](CC(C)C)NC(=O)[C@H](CCCNC(=N)N)NC(=O)[C@H](CCC(N)=O)NC(=O)[C@@H](NC(=O)[C@H](C)NC(=O)[C@@H]1CSSC[C@H](NC(=O)[C@@H](N)CCCCN)C(=O)N[C@@H](CC(N)=O)C(=O)N[C@@H]([C@@H](C)O)C(=O)N[C@@H](C)C(=O)N[C@@H]([C@@H](C)O)C(=O)N1)[C@@H](C)O)C(C)C)C(=O)N[C@@H](CC(C)C)C(=O)N[C@@H](CO)C(=O)N[C@@H](CO)C(=O)N[C@H](C(=O)N[C@@H](CC(N)=O)C(=O)N[C@H](C(=O)NCC(=O)N[C@@H](CO)C(=O)N[C@@H](CC(N)=O)C(=O)N[C@H](C(=O)N[C@@H](Cc1ccc(O)cc1)C(N)=O)[C@@H](C)O)C(C)C)[C@@H](C)O | INS-1 832/13 | cellular ATP | – | 24 h | – | EC50 | 68 µM
CSCC[C@H](NC(=O)[C@@H](NC(=O)[C@H](CCC(N)=O)NC(=O)[C@H](CO)NC(=O)[C@@H](N)C(C)C)[C@@H](C)O)C(=O)N[C@@H](CCCNC(=N)N)C(=O)N[C@@H](CCC(N)=O)C(=O)N[C@H](C(=O)N[C@@H](C)C(=O)N[C@H](C(=O)N1CCC[C@H]1C(=O)N[C@@H](CC(C)C)C(=O)N[C@@H](CC(C)C)C(=O)N[C@@H](Cc1c[nH]c2ccccc12)C(=O)N[C@@H](Cc1ccccc1)C(=O)N[C@@H](Cc1c[nH]c2ccccc12)C(=O)N[C@H](C(=O)NCC(=O)N[C@@H](CO)C(=O)N[C@@H](CC(C)C)C(=O)NCCOCCOCCOCCOCCOCCOCCOCCOCCOCCOCCOCCOCCC(=O)N[C@@H](CS)C(N)=O)[C@@H](C)O)C(C)C)[C@@H](C)O | HCC1171 lung carcinoma | cell binding, phage binding, item: output/input phage | – | 10 min, 37 °C | baseline: control phage | selectivity ratio | 27 ± 3.1
CC(C)(C)C(=O)OCOP(=O)(OCOC(=O)C(C)(C)C)C1CCCN(O)C1=O (stereo not drawn) | BT-549 | – | – | – | – | log LC50 | > -4 log M
Cc1cc(Oc2nc(N3CC[C@@H](c4ccncc4)C3)ncc2F)[nH]n1 | SK-HEP1 | cell proliferation | liver cancer | – | – | IC50 | 60.3 µM
CN(C)C(=O)[C@@H](NC(=O)c1cc(-c2ccnn2C)ccc1-c1ccc(C(F)(F)F)cc1)c1cccc(C(F)(F)F)c1 | NKL effector, Ba/F3-ULBP1 target | NKG2D-mediated cell killing, inhibitor | – | – | – | IC50 | > 20 µM
CN(C)C(=O)c1cncc(-c2cnc3[nH]cc(-c4cc(OS(=O)(=O)F)ccc4C(F)(F)F)c3c2)c1 | Ba/F3 BCR-ABL T315I | cell proliferation | – | 72 h | – | GI50 | > 1 µM
CCOC(=O)C1(Cc2ccccc2)Oc2cc(F)ccc2N(Cc2ccccc2)C1=O (stereo not drawn) | HaCaT | cell growth or viability, CCK-8 | – | 6.25 µM, 72 h | – | inhibition | 0.21%
CC(C)C12OC1C1OC13C1(C)CCC4=C(COC4=O)C1CC1OC13C2OC(=O)CCC(=O)OC1OC(CO)C(O)C(O)C1O (stereo not drawn) | human Astrocyte | cell growth or viability, XTT | – | 47 h | – | IC50 | 5.31 µM

For quick reference, copied from above:
Structure (SMILES) | cell line | test | test system | setting | how to read | measurement | result
CC(C)(C)C(=O)OCOP(=O)(OCOC(=O)C(C)(C)C)C1CCCN(O)C1=O (stereo not drawn) | BT-549 | – | – | – | – | log LC50 | > -4 log M
Cc1cc(Oc2nc(N3CC[C@@H](c4ccncc4)C3)ncc2F)[nH]n1 | SK-HEP1 | cell proliferation | liver cancer | – | – | IC50 | 60.3 µM
CN(C)C(=O)[C@@H](NC(=O)c1cc(-c2ccnn2C)ccc1-c1ccc(C(F)(F)F)cc1)c1cccc(C(F)(F)F)c1 | NKL effector, Ba/F3-ULBP1 target | NKG2D-mediated cell killing, inhibitor | – | – | – | IC50 | > 20 µM
CN(C)C(=O)c1cncc(-c2cnc3[nH]cc(-c4cc(OS(=O)(=O)F)ccc4C(F)(F)F)c3c2)c1 | Ba/F3 BCR-ABL T315I | cell proliferation | – | 72 h | – | GI50 | > 1 µM
